Results gathered from unrelated publications.
Numbered parts are unrelated; each lists some results of a single study. Changes are numbered by the printed parent chain.

Block 1
Target: Prothrombin, mature alpha-thrombin (F2, Homo sapiens, UniProt P00734)
Technique: aptamer microarray, sandwich
Molecule type: DNA with 2'F-ANA
Sample: in vitro
Tested at: 200 nM
Setting: whole 15-mer aptamer, many near background
Added: Cy3 exosite-II aptamer, 400 nM
Reading: higher = stronger binding
Endpoint: mean fluorescence intensity
Oligonucleotide: GGTTGGTGTGGTTGG
Modification = 2'F-ANA at 1 3 5 8 10 11 13 15; value = 51.6 a.u.
Modification = 2'F-ANA at 1 3 8 12 13 14 15; value = 128 a.u.
Modification = 2'F-ANA at 1 4 5 6 7 9 10 13 14; value = 47.1 a.u.
Modification = 2'F-ANA at 1 3 4 6 8 9 10 12; value = 87.8 a.u.
Modification = 2'F-ANA at 1 2 4 5 7 8 12 14; value = 51.6 a.u.
Modification = 2'F-ANA at 1 2 8 10 12 13 14; value = 51.9 a.u.
Modification = 2'F-ANA at 1 2 3 5 7 9 12; value = 119 a.u.
Modification = 2'F-ANA at 1 2 3 4 5 8 14; value = 61 a.u.

Block 2
Target: PABPC1L2, full length, GST fusion (mouse, UniProt A0ABA7IW68)
Technique: RNAcompete
Molecule type: RNA
Sample: in vitro
Tested at: 20 nM
Setting: 7-mer, probes averaged, single round
Reference: mean of 7-mers
Reading: higher = stronger binding
Endpoint: 7-mer Z-score
Residues (chain): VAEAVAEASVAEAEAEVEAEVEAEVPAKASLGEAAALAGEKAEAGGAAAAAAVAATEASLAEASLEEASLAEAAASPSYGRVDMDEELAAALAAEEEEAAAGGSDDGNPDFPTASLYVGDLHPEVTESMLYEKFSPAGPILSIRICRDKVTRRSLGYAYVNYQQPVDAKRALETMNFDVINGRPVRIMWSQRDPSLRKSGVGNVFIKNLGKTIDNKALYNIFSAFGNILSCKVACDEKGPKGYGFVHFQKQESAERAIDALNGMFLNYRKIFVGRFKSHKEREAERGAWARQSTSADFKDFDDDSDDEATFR
Oligonucleotide = GCGAUCG; value = -0.104
Oligonucleotide = AACACAA; value = 1.45
Oligonucleotide = GGAUCUC; value = -0.0718
Oligonucleotide = UCCUAGC; value = -0.231
Oligonucleotide = CCGGGCU; value = -0.0373
Oligonucleotide = CGUACCA; value = -0.248
Oligonucleotide = UAUGCAA; value = -0.13
Oligonucleotide = ACUGCAA; value = 0.111

Block 3
Target: Protein max, full length (MAX, Homo sapiens, UniProt P61244-2, residues 1-151)
Technique: protein-binding microarray
Molecule type: double-stranded DNA, one strand shown
Sample: in vitro
Tested at: not given
Setting: k-mer, scored over probes, only values ≥0.25
Reading: higher = stronger binding
Endpoint: E-score
Oligonucleotide = CCACGCAG; value = 0.289
Oligonucleotide = GTCATGCA; value = 0.3
Oligonucleotide = ACGCCTTA; value = 0.277
Oligonucleotide = ACATGCTC; value = 0.412
Oligonucleotide = GGCATCAC; value = 0.27
Oligonucleotide = CCTGCACG; value = 0.368
Oligonucleotide = ATGACCAC; value = 0.293
Oligonucleotide = AAAGCATG; value = 0.449

Mixed results
Parent: PafA, mature enzyme, eGFP fusion (Elizabethkingia meningoseptica, UniProt Q9KJX5); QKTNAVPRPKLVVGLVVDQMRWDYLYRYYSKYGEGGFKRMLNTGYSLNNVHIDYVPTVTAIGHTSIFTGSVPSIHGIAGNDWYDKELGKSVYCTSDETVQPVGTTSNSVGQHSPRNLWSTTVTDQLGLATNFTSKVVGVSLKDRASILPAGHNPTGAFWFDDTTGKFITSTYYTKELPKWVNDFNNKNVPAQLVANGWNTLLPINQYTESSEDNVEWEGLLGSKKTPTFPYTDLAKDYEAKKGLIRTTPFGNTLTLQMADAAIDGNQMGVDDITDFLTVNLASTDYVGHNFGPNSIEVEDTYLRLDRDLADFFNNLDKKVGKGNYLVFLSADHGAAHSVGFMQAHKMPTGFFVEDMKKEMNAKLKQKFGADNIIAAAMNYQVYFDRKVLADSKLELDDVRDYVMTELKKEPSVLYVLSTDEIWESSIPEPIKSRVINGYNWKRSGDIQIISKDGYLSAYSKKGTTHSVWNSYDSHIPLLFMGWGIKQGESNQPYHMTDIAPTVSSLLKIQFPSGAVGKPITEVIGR
Change = F511G; target = tungstate, free oxyanion; test = microfluidic competitive inhibition; test system = in vitro, cell-free expressed; setting = not given, derived from inhibition constants, unchanged parent 2230 nM; scale = lower = stronger binding; endpoint = oxyanion analog dissociation constant; value = 2.24 µM
